Assay results of several laboratories.
Numbered parts are unrelated; each lists some results of a single study.

Study 1
Target: RNA binding protein fox-1 homolog 2, RRM domain, GST-SBP tag (RBFOX2, Homo sapiens, UniProt O43251-10, residues 100-194)
Technique: RNA Bind-n-Seq
Form: RNA
Medium: in vitro
Tested at: 365 nM
Setting: natural RNA segment, single round, ends assumed
Relative to: no-protein control
Reading: higher = stronger binding
All sequences stand within: GGGAGUUCUACAGUCCGACGAUC … UGGAAUUCUCGGGUGCCAA
Target sequence (chain): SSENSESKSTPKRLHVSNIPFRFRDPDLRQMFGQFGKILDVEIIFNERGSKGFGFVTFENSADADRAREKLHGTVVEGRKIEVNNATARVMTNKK
| Sequence | RBNS enrichment (R) |
| --- | --- |
| GCCUCUGGAGGUGCCUUUGGCCACAUGUGCUGUGCUGUUUGUCUCCUCGACAGGGAGCCUGUCCACCAGCAGGCUGCGGUCCCAGCGGGUGCGUCUGCAGCUCCUCCCCU | 0.185 |
| UACUACUUUCUCAAAAUGGAAGCCCUUAAAGGUGCUUUGAUACUGAAGGACACAAAUGUGACCGUCCAUCCUCCUUUAGAGUUGCAUGACUUGGACACGGUAACUGUUGC | 8.49 |
| UGCAAGCAGCACUUCAGAAGAAACCAGCAUCAAAGCAGCCUUCCCUGACCCCACCUAUCGUCUUCUGCUAAGGGACAGUACAGAAGCUGCUGUCUGGGCUGUAAAGUCUG | 0.523 |
| CAACACUGGGAGAUGUGUUUGCCAGUAAGUUGCUCAUCACAAGAGCACCAGACUUGGGGGGUGUAAUCUCCGGCAACUUGCAUGCCCUCUGAAAGAAGGGUUUUCUGUGC | 0.409 |
| UUGCAGGCUGGGCGCGGUAGCUCAUGUCUGUAAUCCCAGCACUUUGGGAGGCCGAGGUGGGUGUAUCAGUUGAGGUCAGGAGUUGGAGACCAGUCAGCCAGUUAGUAGAA | 1.24 |
| UCCUGGAGGUGACUGGAGUAGCUGCUUUGCCAUUUCAUCACUGGGAUUCUGAACAGGCGCCAAGCUAACAGGUGGAGAAAUGAGCCAGAACUCCCUGUCUGAAAAGGAUG | 0.572 |
| CUUGGUGACAUCAUUCCAAACCUGGGGUAGCUGCCGCCCCCUGUGUCAGCCACAUACCCCCUCUCGCAGUGUUCUGAGGAAAGGAGCCUUCGGCAUAGACUCGUGUAUUU | 0.289 |
| CUACACCAUCUGGUGAGGAACCAAGGCCACCUCUGUGCCGGGAAAGACAUCACAUACCUUCAGCACUUCUCACAAUGUAACUGCUUUAGUCAUAUUAACCUGAAGUUGCA | 0.304 |
| GUGUGAACUGUCCUGUGAGCUUUAUGUCAGGAGACUGUGACCUUCAUGUCCAGCUUCAAAGAGUUGUGCAUGAACUCGGUAAUACACAUCACACGGCUGAGAGUCCCCUU | 0.456 |
| AAACAUCUGGAUAUCAAGGUGGAAAUGGCCCAUUUAAUGAUUGAUUAUAUCAUUUUGUGGAUAUAGUUAUAAUCUGAUGGGCCUGGCUGGGAGUGGAAGAAGGGAAGCCU | 0.347 |
| AAGAUUUUCUUUGUCUGUUGUUGGCAUAGAUUCUUUUGUACAUAUUUAUUUAUUUGUGUUUAUAUAUGUCAAUUGGUUUCCUUUCUUAGCUUGAUAUUGCCUAGCUUUGU | 1.42 |
| UGGAUGAGAGCCAGGGAUGCAUUCUCUCCAAACAGCUACCCUGGCCCAUUUUAAGGUAAUCUCAUUCUUCAAAAUGUUCCAUAGAAUCCUCCAAAUUCCCCCAGCAGACU | 0.433 |

Study 2
Target: Histone acetyltransferase KAT6A, winged helix 2, GST fusion (KAT6A, Homo sapiens, UniProt Q92794, residues 85-181)
Technique: protein binding microarray
Form: double-stranded DNA, one strand shown
Medium: in vitro
Tested at: not given
Setting: 8-mer, flanks averaged, mean of 2 arrays, mostly near background
Relative to: not given
Reading: higher = stronger binding
Residues (chain): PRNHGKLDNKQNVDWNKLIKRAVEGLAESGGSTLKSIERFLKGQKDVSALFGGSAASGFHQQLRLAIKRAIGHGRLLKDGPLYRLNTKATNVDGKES
| Sequence | E-score |
| --- | --- |
| ATTACCCA | 0.0384 |
| CCGATGAG | 0.0522 |
| AAGACGAT | -0.0525 |
| CGGAACTC | -0.0212 |
| ACATGTCC | -0.176 |
| CAGTCGGG | 0.133 |
| ACCGATGC | 0.00507 |
| TCCTCTCA | -0.139 |
| CGTATGCA | -0.0633 |
| ACGAGAGT | -0.0768 |
| CCGCTGAC | 0.105 |
| ATAAGGAG | -0.222 |
| CACGTTGG | -0.165 |
| TACGTCTA | -0.202 |
| CAACTCGG | 0.0519 |
| CAGGTCTA | -0.076 |
| TACTGACA | 0.107 |
| AGTAAAGC | 0.0609 |
| CCCTACCC | -0.0843 |
| ACACATAT | -0.171 |
| CCAGATTA | 0.0186 |
| AGCATTCG | -0.0381 |
| ATTTCGGC | 0.0975 |
| ATTGCTAA | 0.0947 |
| CCTGTAGA | -0.0506 |

Study 3
Target: RING finger protein unkempt homolog, zinc fingers 1-6, GST-SBP tag (UNK, Homo sapiens, UniProt Q9C0B0, residues 30-357)
Sequence of UniProt Q9C0B0 (30-357, looked up): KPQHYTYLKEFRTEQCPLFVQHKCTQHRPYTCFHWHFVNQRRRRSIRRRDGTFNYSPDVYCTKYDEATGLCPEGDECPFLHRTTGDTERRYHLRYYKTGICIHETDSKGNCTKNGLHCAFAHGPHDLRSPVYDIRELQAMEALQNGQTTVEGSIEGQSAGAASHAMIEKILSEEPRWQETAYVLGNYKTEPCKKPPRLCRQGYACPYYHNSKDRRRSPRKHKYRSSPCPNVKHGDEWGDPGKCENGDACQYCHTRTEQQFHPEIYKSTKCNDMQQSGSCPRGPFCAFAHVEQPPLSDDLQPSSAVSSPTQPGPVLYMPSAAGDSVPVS
Technique: RNA Bind-n-Seq
Form: RNA
Medium: in vitro
Tested at: not given
Setting: RNA with constant flanks, human-mouse chimeric sites, ends assumed
Relative to: input RNA pool
Reading: higher = stronger binding
All sequences stand within: GGGAGUUCUACAGUCCGACGAUC … CAACAGAGGAUUGAGCAUCA
| Sequence | bound/input enrichment [ratio] |
| --- | --- |
| CCCCAAUUACCAUCUGUGGUCUGGAACUGCACUCUCUUUUUUAAAAAACAUGUAUACAUUUUAGGGCUGUAGAUUUAUUUUCCUGGUUUUGUUUUUCAUUGCUGACUUUGAGCACAAGAA | 3.04 |
| AAAGAGAAACUAAAGCAACUAAUAGAGAAGAGGAUUGGCAAAGAGAAUUUCAUAGAGAAACUAGGAUUUUAUUAGCAACAUGAGUUAUAUUCCAGAGGCAUCUCAGAACCCCAGCCAAAC | 17.8 |
| CCCCAAUACCAUUUGCAGGUCUGGAACUGCACUCUCUUUUUUAAAAAACAUGUAUACAUUUUAGGGCUGUAGAUUUACUUUCCUAUUUUUGUUUUUCUUGCUUAUUCUUUGAGCACAGAA | 1.83 |
| GCUCUUGGGAAUGUAAUCAGCGCCUUGGGGGACAAGAGCAAGAGAGCCACCCAUGUCCCCUAUAGAGAUUCCAAGCUGACAAGACUCUUGCAGGAUUCCCUUGGGGGUAACAGCCAAACC | 0.17 |
| AAAUUUCCCCUCCUGAGACCUCCUCCGAAGUUGGAGUCUCUUACAGAUGCCUCAUCCCCUGUUAGUAUUUUAGUUUGGACCACCCAGCCUUGGACAAUUCCCGCCAACCAGGCAAUUUGC | 2.33 |
| AGAUAUUAAGUAUUUUGAAAAAACUCGAACAGAUUUGACAAGGGUAGCCAGCUUGGAGUCUAGCAACUUUGCCAAUGGUUUACCAAUCUGGGGGCUUGUUUUUCUUUUCUUCUUUCAAAU | 0.307 |
| GAGCCAAGCCGGCAGUUUGUAAAGGACUCAAUUCGGCUGGUUAAAAGAUGCACCAAACCCGACAGAAAAGAAUUCCAGAAGAUUGCCAUGGCUACAGCAAUAGGAUUUGCUAUCAUGGGA | 0.113 |
| AAAGAACCUCUCUCUGAUGAAGAUGAGGAAGACAAUGAUGAUGUUGAACCCAUUUCUGAAUUUCGAUUUGUGCCCAGUGAUAAGUCAGCGUUGGAGGCGAUGUUCACAGCAAUGUGUGAG | 0.244 |
| CUCAGAGAUGUGGCAUAUCAGUAUGUGAAAAAGGGGGCUCGUAUAUUUGUGGAAGGGAAAAUAGACUAUGGCGAGUACAUGGAUAAAAACAAUGUGAGGCGACAAGCAACAACAAUCAUA | 0.449 |
| UCGGAUGCUGUGCUGGGUCACUUUUCAUAUCCAGAUCCUUCACAGUGGACAGAUGAAGAAUUAGGUAUCCCUCCUGAUGAUGAAGACUGACACUGUAAACUCUCUGGACGAGUAGGAGCA | 0.568 |
| AAAGAGUGGAUAGAGUGUGCACACGGGAUCGGUGGGACUCGGGCAGAAAAGGAGUGCAAGAUAGAGUUCGAUGACUUCGAAGAGUGCUUGCUUCGGUACAAAACGAUGAGGCGAAUGCAU | 0.292 |

Study 4
Target: Ras GTPase-activating protein-binding protein 1, RRM domain (G3BP1, Homo sapiens, UniProt Q13283)
Sequence of UniProt Q13283 (whole entry, looked up): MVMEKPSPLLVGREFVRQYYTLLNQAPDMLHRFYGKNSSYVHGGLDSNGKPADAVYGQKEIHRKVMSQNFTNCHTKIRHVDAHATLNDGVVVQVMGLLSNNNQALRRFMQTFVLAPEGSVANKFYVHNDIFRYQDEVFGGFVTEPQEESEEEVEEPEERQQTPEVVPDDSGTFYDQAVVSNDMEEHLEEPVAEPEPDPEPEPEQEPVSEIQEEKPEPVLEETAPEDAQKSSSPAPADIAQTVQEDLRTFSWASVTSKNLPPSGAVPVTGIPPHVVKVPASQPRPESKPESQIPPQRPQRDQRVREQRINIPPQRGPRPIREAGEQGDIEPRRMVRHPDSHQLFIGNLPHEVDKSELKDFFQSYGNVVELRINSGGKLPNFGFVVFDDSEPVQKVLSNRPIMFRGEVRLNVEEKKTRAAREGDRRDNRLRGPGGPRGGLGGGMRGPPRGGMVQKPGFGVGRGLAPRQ
Technique: RNA Bind-n-Seq
Form: RNA
Medium: in vitro
Tested at: 1 µM
Setting: whole 134-nt RNA, ends assumed
Added: 150 mM KCl
Relative to: input library
Reading: higher = stronger binding
All sequences stand within: GGGAGUUCUACAGUCCGACGAUC … UGGAAUUCUCGGGUGUCAAGG
| Sequence | log2 enrichment |
| --- | --- |
| AGUCCUGUGCUACACAUCGUAUGUACCGAAUCAAAUUUUUUUAAAUUUAAACCCAAAAAAGUAUUAUGUUACGCCGUUCGGAUCUGCACU | -1.54 |
| CCUGUGCUACACAUCGUAUGUACCGAAUCGGGUUUUUUGGGGUUUUUUGGGUUUUUUGGGAAAGUAUUAUGUUACGCCGUUCGGAUCUGC | -0.204 |
| UGGCCCUGGUGGCAUGCGGGGAGGAAGAGGUGGCCUCAUGGAUCGUGGUGGUCCCGGUGGAAUGUUCAGAGGUGGCCGGGGUGGAGACAG | 1.41 |
| UGGGAGGUGGAUUUUGUUUAUUUUUCUAGCUCAUUUCCAGGGGUGGGAAUUUUUUUUUAAUAUGUGUCAUGAAUAAAGUUGUUUUUGAAA | 2.09 |
| UCAAGUCCUGUGCUACACAUCGUAUGUACCGAAUCGGAGGAAAGGAAAAAAAGGAAAGUAUUAUGUUACGCCGUUCGGAUCUGCACUUCC | -0.101 |
| AGUCCUGUGCUACACAUCGUAUGUACCGAAUCGGAAAAAGGAAAAAAAGGAAAAAGGAAAGUAUUAUGUUACGCCGUUCGGAUCUGCACU | 0.0361 |
| UAGAUAUCCAUAGAAAAGAGAACUCUGGAGCUGCAGAGAAGCCUGUCACCAUCCAUGCCACCCCAGAGGGGACUUCUGAAGCAUGCCGCA | 0.0439 |
| UGGCCCUGGUGGCAUGCGGGGAGGAAGAGGUGGCCUCAUGGAUCGUGGUGGUCCGGGUGGAAUGUUCAGAGGUGGCCGUGGUGGAGACAG | 0.551 |
| UAACUUUAGAGGAGGAUCUGAUGGAUAUGGCAGUGGACGUGGAUUUGGGGAUGGCUAUAAUGGGUAUGGAUGAGGACCUGGAGGUGGCAA | -0.237 |
| UCCUCAAGUCCUGUGCUACACAUCGUAUGUACCGAAUCGGGAGGAGGAGGGGAAAGUAUUAUGUUACGCCGUUCGGAUCUGCACUUCCAG | -0.285 |
| UUAUCUGUGGACUUCACCCAAAAGGAGUGGCAGCUACUGGAUCCCUCUCAGAAGAAUUUAUACAAGGAUGUGAUGUUGGAGAACUAUAGC | -0.0405 |
| UGGCCCUGGUGGCAUGCGGGGAGGAAGAGGUGGGCUCAUGGAUCGUGGUGGUCCCGGUGGAAUGUUCAGAGGUGGCCGUGGUGGAGACAG | 0.939 |
| UGGGAGGAGGAUUUUGUUUAUUUUUUUAGCUCAUUUCCAGGGGUGGGAAUUUUUUUUUAAUAUGUGUCAUGAAUAAAGUUGUUUUUGAAA | 1.69 |
| UGGGAGGUGGAUUUUGUCUAUUUUUUUAGCUCAUUUCCAGGGGUGGGAAUUUUUUUUUAAUAUGUGUCAUGAAUAAAGUUGUUUUUGAAA | 1.67 |

Study 5
Target: Sal-like protein 4, full length isoform B (SALL4, Homo sapiens, UniProt Q9UJQ4-2, residues 1-616)
Technique: universal PBM
Form: double-stranded DNA, one strand shown
Medium: in vitro
Tested at: not given
Setting: 8-mer, flanks averaged, mean of replicates
Reading: higher = stronger binding
| Sequence | E-score |
| --- | --- |
| GCTACCGA | -0.0995 |
| GACTAACC | -0.197 |
| GAGTTTGA | -0.0217 |
| GCGGCAGC | -0.358 |
| AGTAAATA | 0.355 |
| TCGCGCCA | -0.18 |
| GGGTCCTA | -0.2 |
| ACGTTACA | 0.161 |
| AGTCCTCG | -0.222 |
| ATTCATCA | 0.267 |
| GTCCTGGA | -0.153 |
| CCAGACAG | -0.199 |
| AGAGTTTG | 0.131 |
| ACAGATGG | 0.0176 |
| GTTGGGTA | -0.0491 |
| ATGTTCGA | 0.0988 |
| CTAACGAA | 0.0785 |
| GAAGCTTC | -0.181 |
| ATACGAGG | -0.0485 |

Repeated from above (study 2):
| Sequence | E-score |
| --- | --- |
| CGGAACTC | -0.0212 |
| ACATGTCC | -0.176 |
| CAGTCGGG | 0.133 |
| ACCGATGC | 0.00507 |
| TCCTCTCA | -0.139 |
| CGTATGCA | -0.0633 |
| ACGAGAGT | -0.0768 |
| CCGCTGAC | 0.105 |
| ATAAGGAG | -0.222 |
| CACGTTGG | -0.165 |
| TACGTCTA | -0.202 |
